Measurements gathered from unrelated publications.
Lines come from different studies, so protocols differ. ± gives the spread as reported.
SUMO-activating enzyme subunit 2 with SAE1: SUMO-activating enzyme subunit 2, with SAE1 (Homo sapiens, UniProt Q9UBT2)
uidA: Beta-glucuronidase (uidA, Escherichia coli, UniProt P05804)
KCNJ13 M125R: Inward rectifier potassium channel 13 (KCNJ13, Homo sapiens, UniProt O60928, M125R)
CDPK1: Calmodulin-domain protein kinase 1 (CDPK1, Toxoplasma gondii, UniProt Q9BJF5)
Squalene synthase ERG9: Squalene synthase ERG9 (Saccharomyces cerevisiae, UniProt P29704)

Amino acid sequences for entries named in this document (tags omitted). Residues count along the entry.
UniProt P05804, whole entry: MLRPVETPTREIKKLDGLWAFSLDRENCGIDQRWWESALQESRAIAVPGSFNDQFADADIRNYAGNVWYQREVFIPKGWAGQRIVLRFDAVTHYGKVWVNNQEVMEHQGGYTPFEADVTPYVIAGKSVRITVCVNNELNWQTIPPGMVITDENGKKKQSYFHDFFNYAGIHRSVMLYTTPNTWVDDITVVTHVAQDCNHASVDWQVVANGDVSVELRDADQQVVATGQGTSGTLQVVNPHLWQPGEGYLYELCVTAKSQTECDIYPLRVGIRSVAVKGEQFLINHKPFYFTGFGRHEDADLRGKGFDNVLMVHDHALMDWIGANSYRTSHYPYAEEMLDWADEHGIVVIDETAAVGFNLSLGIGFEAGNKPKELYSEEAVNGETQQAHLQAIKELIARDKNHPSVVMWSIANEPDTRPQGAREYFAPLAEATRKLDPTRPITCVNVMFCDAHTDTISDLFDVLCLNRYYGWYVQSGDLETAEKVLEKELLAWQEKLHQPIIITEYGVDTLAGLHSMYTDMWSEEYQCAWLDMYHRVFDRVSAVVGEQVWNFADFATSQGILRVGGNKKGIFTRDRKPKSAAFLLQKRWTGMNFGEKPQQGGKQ
UniProt O60928, whole entry M125R: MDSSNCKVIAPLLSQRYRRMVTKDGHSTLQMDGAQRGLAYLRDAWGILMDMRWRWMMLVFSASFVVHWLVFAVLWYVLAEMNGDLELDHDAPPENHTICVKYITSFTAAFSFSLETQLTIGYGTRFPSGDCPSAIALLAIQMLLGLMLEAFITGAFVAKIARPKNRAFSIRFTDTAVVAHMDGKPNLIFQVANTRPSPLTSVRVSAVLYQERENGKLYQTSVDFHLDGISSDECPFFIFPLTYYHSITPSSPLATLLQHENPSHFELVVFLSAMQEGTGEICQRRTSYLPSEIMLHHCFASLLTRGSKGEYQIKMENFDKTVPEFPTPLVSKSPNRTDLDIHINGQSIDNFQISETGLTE
UniProt Q9BJF5, 1-507: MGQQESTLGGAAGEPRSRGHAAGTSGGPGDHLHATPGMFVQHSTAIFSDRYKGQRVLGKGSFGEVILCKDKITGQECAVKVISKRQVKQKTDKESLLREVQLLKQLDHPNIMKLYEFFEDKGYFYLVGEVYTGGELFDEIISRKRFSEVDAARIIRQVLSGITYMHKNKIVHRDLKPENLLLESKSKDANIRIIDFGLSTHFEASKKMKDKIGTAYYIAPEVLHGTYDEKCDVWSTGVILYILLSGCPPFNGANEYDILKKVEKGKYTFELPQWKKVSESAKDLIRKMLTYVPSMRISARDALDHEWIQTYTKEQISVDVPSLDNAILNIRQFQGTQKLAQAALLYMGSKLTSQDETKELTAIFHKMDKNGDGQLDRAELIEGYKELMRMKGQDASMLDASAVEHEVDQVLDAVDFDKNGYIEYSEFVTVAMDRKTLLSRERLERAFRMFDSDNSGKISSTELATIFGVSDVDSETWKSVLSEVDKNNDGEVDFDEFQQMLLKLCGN
UniProt Q00959, 23-1464 limits assumed: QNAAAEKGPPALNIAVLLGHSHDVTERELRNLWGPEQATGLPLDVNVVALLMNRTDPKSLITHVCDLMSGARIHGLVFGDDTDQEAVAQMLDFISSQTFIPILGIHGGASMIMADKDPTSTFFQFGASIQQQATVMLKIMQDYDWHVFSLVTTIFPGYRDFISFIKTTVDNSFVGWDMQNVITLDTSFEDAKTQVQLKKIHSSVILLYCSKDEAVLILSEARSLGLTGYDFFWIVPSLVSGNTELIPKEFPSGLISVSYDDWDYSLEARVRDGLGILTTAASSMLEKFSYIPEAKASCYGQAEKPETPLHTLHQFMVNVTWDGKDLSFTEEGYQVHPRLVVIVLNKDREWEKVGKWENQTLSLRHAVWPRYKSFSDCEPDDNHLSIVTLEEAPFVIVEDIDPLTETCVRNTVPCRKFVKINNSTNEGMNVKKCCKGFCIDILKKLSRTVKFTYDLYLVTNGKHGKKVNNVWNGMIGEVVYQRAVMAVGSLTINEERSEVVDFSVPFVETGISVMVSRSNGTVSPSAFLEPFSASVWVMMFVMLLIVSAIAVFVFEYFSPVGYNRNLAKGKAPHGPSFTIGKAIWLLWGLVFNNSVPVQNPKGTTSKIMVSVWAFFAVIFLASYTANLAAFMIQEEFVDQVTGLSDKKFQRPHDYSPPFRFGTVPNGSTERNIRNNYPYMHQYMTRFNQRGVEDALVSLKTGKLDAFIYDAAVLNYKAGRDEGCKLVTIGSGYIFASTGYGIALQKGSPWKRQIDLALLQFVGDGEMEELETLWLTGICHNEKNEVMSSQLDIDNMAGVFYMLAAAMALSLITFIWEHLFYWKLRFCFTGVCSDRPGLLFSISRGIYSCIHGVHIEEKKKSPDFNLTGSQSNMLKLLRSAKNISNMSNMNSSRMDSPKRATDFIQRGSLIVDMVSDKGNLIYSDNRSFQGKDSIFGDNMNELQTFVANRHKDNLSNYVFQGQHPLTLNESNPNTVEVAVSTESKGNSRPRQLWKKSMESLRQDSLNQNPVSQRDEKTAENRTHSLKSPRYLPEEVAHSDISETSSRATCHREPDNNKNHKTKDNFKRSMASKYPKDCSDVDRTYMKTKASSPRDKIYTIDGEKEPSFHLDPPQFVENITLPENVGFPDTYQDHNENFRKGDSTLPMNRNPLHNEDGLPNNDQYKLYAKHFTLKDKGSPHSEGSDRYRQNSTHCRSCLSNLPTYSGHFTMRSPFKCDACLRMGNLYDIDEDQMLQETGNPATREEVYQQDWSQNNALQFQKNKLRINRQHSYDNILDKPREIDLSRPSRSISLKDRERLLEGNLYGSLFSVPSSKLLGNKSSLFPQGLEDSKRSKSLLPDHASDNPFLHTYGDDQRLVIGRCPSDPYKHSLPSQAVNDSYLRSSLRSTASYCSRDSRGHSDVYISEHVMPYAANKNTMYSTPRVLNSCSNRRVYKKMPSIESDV
UniProt P14867, whole entry, looked up: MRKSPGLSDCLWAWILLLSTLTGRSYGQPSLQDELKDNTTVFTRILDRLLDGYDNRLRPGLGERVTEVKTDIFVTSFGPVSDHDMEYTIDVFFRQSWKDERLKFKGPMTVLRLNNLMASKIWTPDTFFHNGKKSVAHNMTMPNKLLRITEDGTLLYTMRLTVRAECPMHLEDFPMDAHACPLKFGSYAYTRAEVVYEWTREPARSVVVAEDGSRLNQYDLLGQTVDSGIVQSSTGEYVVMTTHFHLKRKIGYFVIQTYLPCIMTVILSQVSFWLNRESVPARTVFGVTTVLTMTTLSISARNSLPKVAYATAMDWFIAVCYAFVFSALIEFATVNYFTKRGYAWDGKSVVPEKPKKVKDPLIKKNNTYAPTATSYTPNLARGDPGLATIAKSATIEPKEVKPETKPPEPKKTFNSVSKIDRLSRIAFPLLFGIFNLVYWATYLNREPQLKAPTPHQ
UniProt P25779, whole entry, looked up: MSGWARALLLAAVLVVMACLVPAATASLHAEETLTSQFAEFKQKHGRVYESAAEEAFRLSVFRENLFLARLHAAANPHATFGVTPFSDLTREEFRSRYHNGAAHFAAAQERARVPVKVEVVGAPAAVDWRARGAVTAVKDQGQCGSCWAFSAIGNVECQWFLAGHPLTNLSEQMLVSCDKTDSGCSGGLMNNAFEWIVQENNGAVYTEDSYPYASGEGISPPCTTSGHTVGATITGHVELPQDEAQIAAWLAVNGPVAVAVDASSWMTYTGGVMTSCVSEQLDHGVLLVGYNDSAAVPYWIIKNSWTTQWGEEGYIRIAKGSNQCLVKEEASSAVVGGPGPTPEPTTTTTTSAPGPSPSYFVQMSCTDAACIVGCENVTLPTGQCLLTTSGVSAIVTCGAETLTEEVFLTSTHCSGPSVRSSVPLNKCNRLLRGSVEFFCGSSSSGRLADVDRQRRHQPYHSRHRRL
UniProt P52699, 19-246 limits assumed: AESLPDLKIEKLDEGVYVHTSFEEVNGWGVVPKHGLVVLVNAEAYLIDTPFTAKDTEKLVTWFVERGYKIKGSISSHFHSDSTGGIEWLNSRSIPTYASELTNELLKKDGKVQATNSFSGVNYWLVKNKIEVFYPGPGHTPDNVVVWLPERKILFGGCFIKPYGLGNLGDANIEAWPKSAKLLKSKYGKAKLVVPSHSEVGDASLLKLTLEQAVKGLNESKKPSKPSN
UniProt Q07440, whole entry P104K/C113S, looked up: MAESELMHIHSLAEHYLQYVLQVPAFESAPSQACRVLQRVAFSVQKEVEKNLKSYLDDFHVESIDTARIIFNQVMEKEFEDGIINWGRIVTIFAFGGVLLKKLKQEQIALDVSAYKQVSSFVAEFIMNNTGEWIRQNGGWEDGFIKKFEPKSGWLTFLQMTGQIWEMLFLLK
UniProt P08546, whole entry: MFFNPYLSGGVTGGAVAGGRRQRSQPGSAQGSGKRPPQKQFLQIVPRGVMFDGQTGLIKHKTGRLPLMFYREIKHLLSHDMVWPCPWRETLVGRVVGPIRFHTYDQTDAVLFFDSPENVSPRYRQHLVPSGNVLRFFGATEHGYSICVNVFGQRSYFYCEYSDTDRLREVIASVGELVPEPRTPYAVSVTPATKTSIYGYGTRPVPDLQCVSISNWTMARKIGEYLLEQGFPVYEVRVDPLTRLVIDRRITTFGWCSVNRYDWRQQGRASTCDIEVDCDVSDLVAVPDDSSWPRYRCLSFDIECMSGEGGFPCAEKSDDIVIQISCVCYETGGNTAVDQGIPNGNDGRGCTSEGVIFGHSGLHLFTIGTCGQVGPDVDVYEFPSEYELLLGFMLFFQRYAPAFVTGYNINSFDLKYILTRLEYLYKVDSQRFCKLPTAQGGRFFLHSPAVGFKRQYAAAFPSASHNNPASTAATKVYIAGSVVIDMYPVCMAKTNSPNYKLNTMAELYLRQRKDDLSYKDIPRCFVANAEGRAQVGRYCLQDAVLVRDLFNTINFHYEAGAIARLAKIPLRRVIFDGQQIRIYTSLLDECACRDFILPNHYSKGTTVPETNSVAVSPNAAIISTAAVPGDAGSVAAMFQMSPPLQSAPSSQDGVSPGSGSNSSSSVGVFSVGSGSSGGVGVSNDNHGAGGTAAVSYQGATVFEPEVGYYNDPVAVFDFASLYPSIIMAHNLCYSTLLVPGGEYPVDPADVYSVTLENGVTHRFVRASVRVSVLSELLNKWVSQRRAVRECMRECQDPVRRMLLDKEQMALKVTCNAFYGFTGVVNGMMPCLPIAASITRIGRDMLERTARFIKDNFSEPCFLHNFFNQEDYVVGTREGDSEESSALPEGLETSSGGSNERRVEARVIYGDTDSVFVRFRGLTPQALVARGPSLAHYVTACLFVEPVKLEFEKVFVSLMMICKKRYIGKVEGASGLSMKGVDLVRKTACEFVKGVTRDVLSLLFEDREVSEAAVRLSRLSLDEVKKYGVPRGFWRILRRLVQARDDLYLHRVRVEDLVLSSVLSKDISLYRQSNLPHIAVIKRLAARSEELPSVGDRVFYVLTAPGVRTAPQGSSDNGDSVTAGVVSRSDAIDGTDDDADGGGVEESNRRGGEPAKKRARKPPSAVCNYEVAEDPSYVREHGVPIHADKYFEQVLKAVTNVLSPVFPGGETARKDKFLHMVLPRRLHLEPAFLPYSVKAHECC
UniProt P00772, 27-266 limits assumed: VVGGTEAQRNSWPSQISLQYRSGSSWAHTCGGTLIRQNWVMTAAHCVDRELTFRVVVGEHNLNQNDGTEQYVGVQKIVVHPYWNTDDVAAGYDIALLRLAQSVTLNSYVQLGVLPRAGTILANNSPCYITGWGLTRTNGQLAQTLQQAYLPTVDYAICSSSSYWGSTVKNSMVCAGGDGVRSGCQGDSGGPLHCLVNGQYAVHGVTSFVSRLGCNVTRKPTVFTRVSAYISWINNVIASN

COC(=O)C1=C(C(=O)OC)C2([C@@H](Cc3ccccc3)Nc3ccc(Cl)cc3)C=CC1O2 (stereo partly drawn)
IC50 (SUMO-activating enzyme subunit 2 with SAE1; SUMOylation, inhibitor, AlphaScreen; added: SUMO1-RanGAP1 conjugation): 0.71 µM

N=C(N)c1ccc(OCCSCCOc2ccc(C(=N)N)cc2)cc1
IC50 (Grin1/Grin2a/Grin2b, MK-801 channel binding site (Rattus norvegicus, UniProt P35439+Q00959+Q00960); pH 7): 2.2 ± 0.32 µM

O=C(NO)c1c(F)c(F)cc(F)c1F
IC50 (Histone deacetylase 6, CD2 catalytic domain (hdac6, Danio rerio, UniProt F8W4B7); enzyme activity, inhibitor, fluorogenic; 30 min, added: Ac-RHK(Ac)K(Ac)-AMC): > 20 µM

O=C(O)CCOc1c(SSc2cnn(-c3ccccc3)c(=O)c2OCCC(=O)O)cnn(-c2ccccc2)c1=O
IC50 (srtA (Staphylococcus aureus, UniProt Q2FV99); inhibitor): 6.1 ± 0.5 µM

c1cnc2sc3c(N4CCNCC4)ncnc3c2c1
IC50 (uidA; enzyme activity, inhibitor): 0.019 ± 0.003 µM

Cc1ccc(-c2c(C=C(C#N)c3cnccn3)n(CCCO)c3ncnc(N)c23)cc1
IC50 (Ribosomal protein S6 kinase alpha-3, C-terminal kinase domain (Rps6ka3, Mus musculus, UniProt P18654); kinase activity, inhibitor; C-terminal kinase domain): 0.012 µM

O=C1NC(=O)C2(Cc3ccccc32)N1 (racemic)
IC50 (GABA-A receptor alpha-1/beta-3 (GABRA1/GABRB3, Homo sapiens, UniProt P14867+P28472); [3H]muscimol binding; alpha1beta3 receptor): 3.1 µM

Cc1ccc(C(C)C)cc1Oc1nccc(-c2c(-c3ccc(C(F)(F)F)cc3)ncn2[C@H]2CC[C@@H](N)C2)n1
IC50 (Bromodomain-containing protein 4, BD1 (BRD4, Homo sapiens, UniProt O60885)): 0.067 ± 0.018 µM

O=C(CNC(=O)C1CCCCC1)OC(C(=O)c1ccccc1)c1ccccc1 (stereo not drawn)
IC50 (Cruzipain (Trypanosoma cruzi, UniProt P25779); enzyme activity, inhibitor): 0.03 µM

COC(=O)C1=C(C(=O)OC)C2([C@H](Cc3ccccc3)Nc3ccc(C)cc3)C=CC1O2 (stereo partly drawn)
IC50 (SUMO-activating enzyme subunit 2 with SAE1; SUMOylation, inhibitor, AlphaScreen; added: SUMO1-RanGAP1 conjugation): 7.18 µM

CNc1nc(N2CCNCC2)c2sc3ncccc3c2n1
IC50 (Beta-glucuronidase (Streptococcus agalactiae serotype V, UniProt Q8E0N2); enzyme activity, inhibitor): 2.8 ± 0.6 µM

CCOC(CNCc1ccc2[nH]c3c(C)c4ccncc4c(C)c3c2c1)OCC
IC50 (Toll-like receptor 3 (Homo sapiens, UniProt O15455); reporter gene, SEAP reporter; HEK-Blue hTLR3; added: poly(I:C)): 0.24 ± 0.02 µM

CC(C)Cc1cc(C(=O)O)nc(O)n1
IC50 (Metallo-beta-lactamase type 2 (Serratia marcescens, UniProt P52699); 10 min preincubation, added: FC5 fluorogenic substrate): > 1000 µM

NCc1ccc(-c2ncc(OCC3CCNCC3)nc2-c2ccc(-c3cn[nH]c3)cc2)cc1
IC50 (Genome polyprotein, NS2B-NS3 protease (pol, Dengue virus type 3, UniProt Q6YMS4); enzyme activity, inhibitor; dengue virus type 3 NS2B-NS3 protease): 0.2 ± 0.07 µM

O=[N+]([O-])c1ccc(N=Nc2c(O)ccc3cc(S(=O)(=O)O)ccc23)cc1
IC50 (Bcl-2-related protein A1 (Mus musculus, UniProt Q07440, C113S/P104K); binding, fluorescence polarization; added: FITC-Noxa peptide): 59.2 µM

O=S(=O)(NC1CCN(Cc2cc(Cl)c3cccnc3c2O)CC1)c1ccccc1
IC50 (KCNJ13 M125R; ion current, inhibitor, thallium flux; T-REx-HEK293): 14.7 µM

COC(=O)[C@@]1(C)C=C(C(=O)Nc2cc(C(=O)Nc3ccc(Nc4nccc(-c5cccnc5)n4)cc3)ccc2C)C(=O)CC1
IC50 (MAPK8 (Homo sapiens, UniProt P45983); enzyme activity; added: glutathione 10 mM): 0.013 ± 0.002 µM

Cc1ccc(S(=O)(=O)N(CCOc2ccc(C(=N)N)cc2)CCOc2ccc(C(=N)N)cc2)cc1
IC50 (Glutamate NMDA receptor; Grin1/Grin2b, ifenprodil binding site (Grin1/Grin2b, Rattus norvegicus, UniProt P35439+Q00960); pH 7.4): 0.41 ± 0.13 µM

O=C(NC1CCN(Cc2cc(Cl)c3cccnc3c2O)CC1)c1ccc(F)cc1
IC50 (KCNJ13 M125R; ion current, inhibitor, thallium flux; T-REx-HEK293): 12.1 µM

CCN(CC)C(=O)Oc1ccc(CCC(=O)N2CCC(c3ccccc3)CC2)cc1OC
IC50 (Cholinesterase (BCHE, Equus caballus, UniProt P81908); enzyme activity, inhibitor, Ellman): 2.7 ± 0.03 µM

CNc1ccc2c(n1)sc1c(N3CCNCC3)nc(NC)nc12
IC50 (Beta-glucuronidase (Streptococcus agalactiae serotype V, UniProt Q8E0N2); enzyme activity, inhibitor): 2.4 ± 0.5 µM

NC(=O)c1cc(Sc2ccc(C(F)(F)F)cc2)nc2ccccc12
IC50 (CDPK1; kinase activity, inhibitor, ELISA; added: syntide-2 substrate, ATP 25 µM): 4.4 µM

CC(C)=CCC/C(C)=C/CCCCN1[C@@H](COP(=O)(O)OP(=O)(O)O)[C@]1(C)CC/C=C(\C)CCC=C(C)C (relative stereo)
IC50 (Squalene synthase ERG9; enzyme activity, inhibitor; pH 7.2, tetrabutylammonium salt, added: 100 µM [3H]FPP, no added pyrophosphate): 7.2 ± 0.8 µM

N#Cc1cccc(C(=O)NC2CCN(Cc3cc(Cl)c4cccnc4c3O)CC2)c1
IC50 (KCNJ13 M125R; ion current, inhibitor, thallium flux; T-REx-HEK293): 12.4 µM

O=c1ccn([C@@H]2O[C@H](COP(=O)(O)OP(=O)(O)OP(=O)(O)O)[C@@H](O)[C@]2(F)Br)c(=O)[nH]1
IC50 (Genome polyprotein, NS5B polymerase (Hepatitis C virus genotype 1b, UniProt Q9WMX2); polymerase activity, inhibitor; genotype 1b): 0.64 µM

Nc1nc2[nH]cc(Cc3ccc(C(=O)Nc4ccccc4C(=O)O)cc3)c2c(=O)[nH]1
IC50 (Dihydrofolate reductase (Wuchereria bancrofti, UniProt J9F199); enzyme activity, inhibitor): 18 ± 6 µM

O=c1[nH]c2sc3c(c2c(=O)n1O)CCC3
IC50 (Gag-Pol polyprotein, reverse transcriptase RNase H (gag-pol, Human immunodeficiency virus 1, UniProt P03366); RNase H activity, inhibitor; added: HTS-1 RNA/DNA substrate): 0.1 ± 0.03 µM

Cc1cc(N)c2ccccc2[n+]1CCCCCCCCCCCCCC[n+]1c(C)cc(N)c2ccccc21
IC50 (GBA1 (Homo sapiens, UniProt P04062, R534H); enzyme activity, inhibitor; pH 5.9, added: resorufin β-glucoside 30 µM): 8.26 µM

C[C@@]12C3=C(C(=O)c4occ(c41)[C@@H](O)[C@@H]1O[C@@H]12)[C@@H]1CCC(O)[C@@]1(C)CC3 (stereo partly drawn)
IC50 (RELA (Homo sapiens, UniProt Q04206); DNA binding, inhibitor, ELISA-type binding; HeLa nuclear extract; added: TNF-α): 27 µM

C=CCC(Nc1ccccc1)C12C=CC(O1)C(C(=O)OC)=C2C(=O)OC (stereo not drawn)
IC50 (SUMO-activating enzyme subunit 2 with SAE1; SUMOylation, inhibitor, AlphaScreen; added: SUMO1-RanGAP1 conjugation): 1.33 µM

CN(C)c1ccc2c(n1)sc1c(N3CCNCC3)ncnc12
IC50 (uidA; enzyme activity, inhibitor): 0.023 ± 0.005 µM

CC(C)=CCC/C(C)=C/CCCCN1[C@@H](COP(=O)(O)CP(=O)(O)O)[C@]1(C)CC/C=C(\C)CCC=C(C)C (relative stereo)
IC50 (Squalene synthase ERG9; enzyme activity, inhibitor; pH 7.2, tetrabutylammonium salt, added: 100 µM [3H]FPP, no added pyrophosphate): 3.2 ± 0.2 µM

COC(=O)C1=C(C(=O)OC)C2([C@@H](Cc3ccccc3)Nc3ccc(OC)cc3)C=CC1O2 (stereo partly drawn)
IC50 (SUMO-activating enzyme subunit 2 with SAE1; SUMOylation, inhibitor, AlphaScreen; added: SUMO1-RanGAP1 conjugation): 4.79 µM

NCc1ccc(-c2ncc(OCC3CCNCC3)nc2-c2ccc(-c3ccoc3)cc2)cc1
IC50 (Genome polyprotein, NS2B-NS3 protease (ZIKV, UniProt A0A024B7W1); enzyme activity, inhibitor; Gly4-Ser-Gly4-linked NS2B-NS3 protease): 0.2 ± 0.01 µM

NC(=O)c1cc(Sc2ccccc2)nc2ccccc12
IC50 (CDPK1; kinase activity, inhibitor, ELISA; added: syntide-2 substrate, ATP 25 µM): > 20 µM

CC(C)[C@@H]1NC(=O)[C@]2(C)CSC(=N2)c2nc(sc2-c2ccc(CNC(=O)CCCCCNC(=O)CCCCCNC(=O)CCCC[C@@H]3SC[C@@H]4NC(=O)N[C@@H]43)cc2)CNC(=O)C[C@@H](/C=C/CCS)OC1=O
IC50 (HDAC6 (Homo sapiens, UniProt Q9UBN7); enzyme activity, inhibitor, fluorogenic; with TCEP): 0.0365 µM

Cc1ccc(CN2C(=O)C(O)=C(C(=O)c3cccs3)C2c2ccc(C)cc2)cc1 (racemic)
IC50 (USP21 (Homo sapiens, UniProt Q9UK80); enzyme activity, inhibitor, MALDI-TOF; 35 min preincubation, 30 °C): 13.7 µM

CC(Oc1ccccc1)C(=O)Nc1ccc(Cl)cc1 (stereo not drawn)
IC50 (guaB (Escherichia coli K-12, UniProt P0ADG7, L444Y/S250A); enzyme activity, inhibitor; corrected for open conformation): 0.54 µM

COc1cc(C)cc(Sc2cc(C(=O)N3Cc4ccccc4C3)ccc2O)c1
IC50 (HSP90AA1 (Homo sapiens, UniProt P07900); binding, fluorescence polarization; added: FITC-geldanamycin): ~0.9 µM

CN1CCN(C(c2ccccc2)c2ccccc2)CC1
IC50 (RNMT (Homo sapiens, UniProt O43148); enzyme activity, inhibitor): 159 ± 36 µM

COc1ccc(C(O)(c2ccccc2)c2ccccc2)cc1
IC50 (KIF11 (Homo sapiens, UniProt P52732); microtubule-stimulated ATPase activity, inhibitor): 7.8 µM

CCc1nc(N)nc(N)c1C#CCc1cc(-c2ccncc2)ccc1OC
IC50 (Dihydrofolate reductase (Klebsiella pneumoniae, UniProt A6T4I4); inhibitor): 0.108 ± 0.008 µM

Nc1nc2c(ncn2[C@@H]2CC[C@H](OC(C(=O)O)P(=O)(O)O)C2)c(=O)[nH]1 (relative stereo)
IC50 (DNA polymerase catalytic subunit (Human cytomegalovirus, UniProt P08546); inhibitor; added: [3H]dGTP, calf thymus DNA): 20 ± 9 µM

COc1ccc2c(c1)c(CC(=O)NCCCCNC(=O)CCC(=O)OC1CCCCC1)c(C)n2C(=O)c1ccc(Cl)cc1
IC50 (PTGS2 (Homo sapiens, UniProt P35354); enzyme activity, inhibitor; 1483 HNSCC cells): 0.2 µM

CNc1nc(N2CCNCC2)c2sc3nc(-c4ccccc4)ccc3c2n1
IC50 (Beta-glucuronidase (Lachnospira eligens, UniProt C4Z6Z2); enzyme activity, inhibitor): 0.6 ± 0.1 µM

CC1CCN(Cc2cc(Cl)c3cccnc3c2O)CC1
IC50 (KCNJ13 M125R; ion current, inhibitor, thallium flux; T-REx-HEK293): 4.8 µM

Nc1c(S(=O)(=O)Oc2ccccc2NC(=O)Cc2c[nH]c3ccccc23)ccc2ccccc12
IC50 (ENPP1 (Homo sapiens, UniProt P22413); added: p-nitrophenyl thymidine 5′-monophosphate): 0.91 ± 0.02 µM

C/C=C1\NC(=O)[C@@H](NC(=O)[C@@H](NC(=O)[C@H](C)NC(=O)C/C(C)=C/Cl)[C@@H](C)CC)[C@@H](C)OC(=O)[C@H](C(C)C)NC(=O)[C@H](Cc2ccc(O)cc2)N(C)C(=O)[C@H](Cc2ccccc2)N2C(=O)[C@H](CC[C@H]2OC)NC1=O
IC50 (CELA1 (Sus scrofa, UniProt P00772); enzyme activity, inhibitor; 30 min, pH 7.4, 22 °C, added: MeOSuc-Ala-Ala-Pro-Val-AMC): 0.00183 µM

Repeated from above:
Cc1ccc(CN2C(=O)C(O)=C(C(=O)c3cccs3)C2c2ccc(C)cc2)cc1 (racemic)
IC50 (USP21 (Homo sapiens, UniProt Q9UK80); enzyme activity, inhibitor, MALDI-TOF; 35 min preincubation, 30 °C): 13.7 µM

Cc1cc(N)c2ccccc2[n+]1CCCCCCCCCCCCCC[n+]1c(C)cc(N)c2ccccc21
IC50 (GBA1 (Homo sapiens, UniProt P04062, R534H); enzyme activity, inhibitor; pH 5.9, added: resorufin β-glucoside 30 µM): 8.26 µM

O=c1ccn([C@@H]2O[C@H](COP(=O)(O)OP(=O)(O)OP(=O)(O)O)[C@@H](O)[C@]2(F)Br)c(=O)[nH]1
IC50 (Genome polyprotein, NS5B polymerase (Hepatitis C virus genotype 1b, UniProt Q9WMX2); polymerase activity, inhibitor; genotype 1b): 0.64 µM
